Experimental data of several laboratories.
Lines come from different studies, so protocols differ. ± marks the error that the study gave.
OPRD1: Delta-type opioid receptor (OPRD1, Homo sapiens, UniProt P41143)
Sequence of UniProt P41143 (whole entry, looked up): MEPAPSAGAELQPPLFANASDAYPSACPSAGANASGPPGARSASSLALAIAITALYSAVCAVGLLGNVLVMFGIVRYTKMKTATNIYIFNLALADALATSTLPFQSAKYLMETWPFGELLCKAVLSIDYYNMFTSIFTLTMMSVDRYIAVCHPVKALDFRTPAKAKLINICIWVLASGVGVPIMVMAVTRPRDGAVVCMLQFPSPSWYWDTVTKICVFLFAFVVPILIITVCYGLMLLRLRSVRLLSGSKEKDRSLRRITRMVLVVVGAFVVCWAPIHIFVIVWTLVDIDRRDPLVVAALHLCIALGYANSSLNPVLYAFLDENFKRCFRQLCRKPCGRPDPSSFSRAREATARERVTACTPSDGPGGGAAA
OPRD1 with β-arrestin2: Delta-type opioid receptor, with β-arrestin2 (OPRD1, Homo sapiens, UniProt P41143)

SMILES = C[C@@H](NC(=O)[C@@H](N)Cc1ccc(O)cc1)C(=O)NCC(=O)N[C@@H](Cc1ccc(F)cc1)C(=O)Nc1ccccc1NC(=O)[C@H](Cc1ccc(F)cc1)NC(=O)CNC(=O)[C@@H](C)NC(=O)[C@@H](N)Cc1ccc(O)cc1; target = OPRD1; assay = GTPγS binding, agonist; conditions = cell membranes; measurement = EC50; result = 0.56 nM
SMILES = CC(C)[C@H]1CC[C@H](N2CC[C@@](C)(c3cccc(O)c3)[C@@H](C)C2)CC1; target = OPRD1; assay = ligand displacement, radioligand; measurement = Ki; result = 105 nM
SMILES = C[C@@H](NC(=O)[C@@H](N)Cc1ccc(O)cc1)C(=O)NCC(=O)N[C@@H](Cc1ccccc1)C(=O)Nc1ccccc1NC(=O)[C@H](Cc1ccccc1)NC(=O)CNC(=O)[C@@H](C)NC(=O)[C@@H](N)Cc1ccc(O)cc1; target = OPRD1; assay = GTPγS binding, agonist; conditions = cell membranes; measurement = EC50; result = 1.7 nM
SMILES = CCCC[C@@H]1NC(=O)[C@H](Cc2ccccc2)NC(=O)CNC(=O)[C@H](NC(=O)[C@@H](N)Cc2ccc(O)cc2)C(C)(C)SSC(C)(C)[C@@H](C(=O)N[C@@H](Cc2c[nH]c3ccccc23)C(=O)NCc2cc(C(F)(F)F)cc(C(F)(F)F)c2)NC(=O)[C@@H]2CCCN2C1=O; target = OPRD1; assay = ligand displacement, radioligand; conditions = cell membranes; measurement = IC50; result = 316 nM
SMILES = CCC(=O)N(CC1CCCCN1C(=O)CCNC(=O)[C@H](Cc1ccccc1)NC(=O)CNC(=O)[C@@H](C)NC(=O)[C@@H](N)Cc1c(C)cc(O)cc1C)c1ccccc1 (stereo partly shown); target = OPRD1; assay = cell-free assay; measurement = Ki; result = 1.2 nM
SMILES = C[C@H]1[C@H]2CCC[C@]1(c1cccc(O)c1)CCN2CCc1ccccc1; target = OPRD1; assay = ligand displacement, radioligand; conditions = cell membranes; measurement = Ki; result = 140 nM
SMILES = NCCCCCCCCN1CCC23c4c5ccc(O)c4OC2c2nc4ccccc4cc2CC3(O)C1C5 (stereo not shown); target = OPRD1 with β-arrestin2; test system = human cells; measurement = EC50; result = 170 nM
SMILES = CC[C@H](C)[C@H](NC(=O)[C@@H](N)Cc1ccc(O)cc1)C(=O)N[C@@H](Cc1ccccc1)C(=O)N[C@@H](CC(N)=O)C(=O)N[C@@H](CC(C)C)C(=O)O; target = OPRD1; assay = radioligand binding, inhibitor; test system = MCF7; conditions = with: [3H]DPDPE or [3H]DSLET; measurement = IC50; result = 3.25 ± 4.2e-10 nM
SMILES = CCC(=O)N(CC1CCCCN1C(=O)[C@H](Cc1ccccc1)NC(=O)CNC(=O)[C@@H](C)NC(=O)[C@@H](N)Cc1ccc(O)cc1)c1ccccc1 (stereo partly shown); target = OPRD1; assay = cell-free assay; measurement = Ki; result = 2 nM
SMILES = C[C@@H](NC(=O)[C@@H](N)Cc1ccc(O)cc1)C(=O)NCC(=O)N[C@@H](Cc1ccc(F)cc1)C(=O)N1CCN(C(=O)[C@H](Cc2ccc(F)cc2)NC(=O)CNC(=O)[C@@H](C)NC(=O)[C@@H](N)Cc2ccc(O)cc2)CC1; target = OPRD1; assay = GTPγS binding, agonist; conditions = cell membranes; measurement = EC50; result = 0.8 nM
SMILES = N[C@@H](Cc1ccc(C(=O)NCCc2c[nH]c3ccccc23)cc1)C(=O)N1Cc2ccccc2C[C@H]1C(=O)N[C@@H](Cc1ccccc1)C(=O)N[C@@H](Cc1ccccc1)C(=O)O; target = OPRD1; assay = GTPγS binding, agonist, radiometric; measurement = EC50; result = 7.08 nM
SMILES = CCCC[C@H](NC(=O)[C@H](Cc1ccccc1)NC(=O)CNC(=O)[C@@H](C)NC(=O)[C@@H](N)Cc1ccc(O)cc1)C(=O)N1CCC[C@H]1C(=O)N[C@@H](CC(C)C)C(=O)N[C@@H](CO[C@@H]1O[C@H](CO)[C@@H](O)[C@H](O)[C@H]1O)C(=O)N[C@@H](Cc1c[nH]c2ccccc12)C(=O)NCc1cc(C(F)(F)F)cc(C(F)(F)F)c1; target = OPRD1; assay = ligand displacement, radioligand; measurement = IC50; result = 1.48 nM
SMILES = CCCCCCNC(=O)c1ccc(C[C@H](N)C(=O)N2Cc3ccccc3C[C@H]2C(=O)N[C@@H](Cc2ccccc2)C(=O)N[C@@H](Cc2ccccc2)C(=O)O)cc1; target = OPRD1; assay = GTPγS binding, agonist, radiometric; measurement = EC50; result = 0.103 nM
SMILES = N=C(N)NCCCCCCCN1CC[C@]23c4c5ccc(O)c4O[C@H]2c2nc4ccccc4cc2C[C@@]3(O)[C@H]1C5; target = OPRD1 with β-arrestin2; test system = human cells; measurement = EC50; result = 500 nM
SMILES = CC(C)C[C@H](NC(=O)[C@H](Cc1ccccc1)NC(=O)CNC(=O)CN(Cc1ccccc1[N+](=O)[O-])C(=O)[C@@H](N)Cc1ccc(O)cc1)C(=O)O; target = OPRD1; assay = reporter gene (SEAP), agonist; test system = HEK-293T cells; conditions = caged form, no photolysis; measurement = EC50; result = 1850 nM
SMILES = N[C@@H](Cc1ccc(C(=O)NCCc2ccc(C3CCCCC3)cc2)cc1)C(=O)N1Cc2ccccc2C[C@H]1C(=O)N[C@@H](Cc1ccccc1)C(=O)N[C@@H](Cc1ccccc1)C(=O)O; target = OPRD1; assay = GTPγS binding, agonist, radiometric; measurement = EC50; result = 1.69 nM

Repeated from above:
SMILES = CC(C)C[C@H](NC(=O)[C@H](Cc1ccccc1)NC(=O)CNC(=O)CN(Cc1ccccc1[N+](=O)[O-])C(=O)[C@@H](N)Cc1ccc(O)cc1)C(=O)O; target = OPRD1; assay = reporter gene (SEAP), agonist; test system = HEK-293T cells; conditions = caged form, no photolysis; measurement = EC50; result = 1850 nM
SMILES = N[C@@H](Cc1ccc(C(=O)NCCc2ccc(C3CCCCC3)cc2)cc1)C(=O)N1Cc2ccccc2C[C@H]1C(=O)N[C@@H](Cc1ccccc1)C(=O)N[C@@H](Cc1ccccc1)C(=O)O; target = OPRD1; assay = GTPγS binding, agonist, radiometric; measurement = EC50; result = 1.69 nM
